Measurements pooled from the literature.
Values joined by “and” are separate records of one study, mostly repeats; a detail may differ.
PDGFRA: Platelet-derived growth factor receptor alpha (PDGFRA, Homo sapiens, UniProt P16234)

Compound | target | test | conditions | how to read | endpoint | value
COc1ccc(NC(=O)Nc2ccc3c(c2)C(=O)N(C(C)CO)CC(C)C(CN(C)Cc2ccc4c(c2)OCO4)O3)cc1 (centres unmarked) | PDGFRA | kinase activity, KinaseProfiler | 0.03 µM, species human | baseline: control | remaining activity | 102%
COc1c(Cl)cccc1Nc1c(-c2ccncc2C#C[C@@]2(C)CCCN2C(=O)/C=C/CN(C)C)[nH]c2c1C(=O)NCC2 | PDGFRA | cell-free assay, competition with immobilised ligand | 3 µM | – | remaining binding | 97%
COc1cc(OC)c(F)c(/C=C/c2cnc3ccn(S(=O)(=O)c4cn(CCF)cn4)c3n2)c1F | PDGFRA | – | 100 nM | – | inhibition | 0%
COc1ccc(O)cc1-c1c[nH]c2ncc(-c3cncc(C(=O)N(C)C)c3)cc12 | PDGFRA | binding, competition with immobilised ligand | 0.2 µM | – | inhibition | 60.7%
O=C(Cc1ccc(OCc2ccccc2)cc1)NC1(C(=O)O)CCN(C(=O)c2ccc(-c3cccc(Cl)c3)cc2)CC1 | PDGFRA | enzyme activity, inhibitor | 10 µM | – | activity vs control | 121%
NC(=O)[C@@H](O)C[C@H]1CCc2sc3ncnc(O[C@H]4CC[C@H](N5CCOCC5)CC4)c3c21 | PDGFRA | enzyme activity, inhibitor | 10 µM | – | inhibition | 19%
O=c1c(-c2ccc(Cl)c(CN3CCOCC3)c2)coc2cc(O)ccc12 | PDGFRA | enzyme activity, inhibitor | 1 µM | – | remaining activity | 103%
CNC(=O)C1CCN(c2cc(C)c(F)cc2NC(=O)c2ccc(-c3cc(O)ccc3C)c(C)c2)CC1 | PDGFRA | binding, competition with immobilised ligand | 1 µM | – | remaining binding | 57%
C=C1CCCCCCCCCC(CO)C1=O (centres unmarked) | PDGFRA | cell-free assay | 10 µM | – | remaining signal | 100%
CN1CCN(c2ccc(Nc3ncc(Cl)c(Nc4ccccc4P(C)(C)=O)n3)cc2Br)CC1 | PDGFRA | enzyme activity, inhibitor | 0.1 µM | – | inhibition | 63.4%
O=C=[N][Ru-4]123([n]4c5ccc(O)cc5c5c6c(c7cc(F)c[n+]1c7c54)C(=O)NC6=O)[S+]1CC[S+]2CC[S+]3CC1 (centres unmarked) | PDGFRA (Homo sapiens, UniProt P16234, V561D) | enzyme activity | 100 nM, human enzyme, added: 10 µM ATP | baseline: untreated | remaining activity | 65%
CN1CCN(Cc2ccc(NC(=O)c3cccc(C#Cc4cnc(N)c5ncccc45)c3)cc2C(F)(F)F)CC1 | PDGFRA | cell-free assay, competition with immobilised ligand | 50 nM | – | remaining binding | 3%
C[C@H]1CN(C(=O)c2cn(-c3ccnc(N)n3)c3cc(C#CC4(O)CCCCC4)ccc23)CCN1 | PDGFRA | enzyme activity, inhibitor, FRET | 1 µM | – | inhibition | -2%
O=C(Nc1ccc(Oc2ncnc3[nH]cc(-c4ccccc4)c23)c(F)c1)c1c2n(n(-c3cc(F)ccc3F)c1=O)CCCC2 | PDGFRA | enzyme activity, inhibitor | 0.5 µM | – | inhibition | 19%
C=CC(=O)Nc1cccc(-c2cnc3[nH]cc(C(=O)NC(C)(C)C)c3n2)c1 | PDGFRA | kinase activity | 0.1 µM | – | inhibition | 25% and 20%
CCN1CCN(Cc2ccc(C(=O)Nc3ccc(C)c(NCc4cnc5[nH]ccc5c4OC)c3)cc2C(F)(F)F)CC1 | PDGFRA | binding, competition with immobilised ligand | 1 µM | – | remaining binding | 9%
Cc1ccc(-c2c(/C=C(\C#N)C(=O)NC(C)C)n(CCCO)c3ncnc(N)c23)cc1 | PDGFRA | cell-free assay, competition with immobilised ligand | 1 µM | – | remaining binding | 54%
COCC12C(=O)NC3C4(C(OC)CC1O)C1CC5(O)C(OC)C(O)C(OC(C)=O)(C1C5OC(=O)c1ccccc1)C3(O)C(OC)C24 (centres unmarked) | PDGFRA | kinase activity, inhibitor, ProQinase kinase profiling | 25 µM | baseline: control | remaining activity | 103%
Cc1cccc(O[C@H]2CCC[C@@H](C(C)CNCc3ccncc3)C2)c1 (relative stereo) | PDGFRA | enzyme activity, inhibitor | 1 µM | – | inhibition | 4%
CNc1ccc(-c2n[nH]c3c2CCN(C(=O)c2ccccc2)C3)cc1 | PDGFRA | cell-free assay, competition with immobilised ligand | 10 µM | – | remaining binding | 26%
C=CC(=O)N1CCCC(n2c(=O)c3ncccc3n(Cc3ccc(Oc4ccccc4)cc3)c2=O)C1 (centres unmarked) | PDGFRA | cell-free assay, competition with immobilised ligand | 1 µM | – | remaining binding | 50%
CCN1CCN(Cc2ccc(NC(=O)c3ccc(C)c(NC(=O)c4cncc(-c5cccs5)c4)c3)cc2C(F)(F)F)CC1 | PDGFRA | binding, competition with immobilised ligand | 1 µM | – | remaining binding | 0.9%
COc1cc(Nc2nc(C)cc(-c3cnn4nc(OC)ccc34)n2)cc(C(F)(F)F)c1 | PDGFRA | inhibitor | 1 µM | baseline: control | remaining activity | 69%

Repeated from above:
Compound | target | test | conditions | how to read | endpoint | value
CCN1CCN(Cc2ccc(NC(=O)c3ccc(C)c(NC(=O)c4cncc(-c5cccs5)c4)c3)cc2C(F)(F)F)CC1 | PDGFRA | binding, competition with immobilised ligand | 1 µM | – | remaining binding | 0.9%
COc1cc(Nc2nc(C)cc(-c3cnn4nc(OC)ccc34)n2)cc(C(F)(F)F)c1 | PDGFRA | inhibitor | 1 µM | baseline: control | remaining activity | 69%
